Measurements collected from several papers.
Each line is one published result; not all experiments were run side by side. Numbers after ± are the reported error. ≈ marks a conversion by molar mass, not a printed value.

SMILES	organism	test	system	conditions	scale	quantity	value
Cc1cccc(-c2cn([C@@H]3O[C@H](CO)[C@@H](O)[C@H]3O)c3ncnc(N)c23)c1	Trichomonas vaginalis	resorufin	G3, metronidazole-sensitive	24 h + 2 h, 2% O2	–	EC50	0.77 ± 0.019 µM
COc1cc(Cn2ccc([C@H](C)[C@](O)(Cn3cnnn3)c3ccc(F)cc3F)n2)ccc1F	Candida tropicalis	growth, broth microdilution	2718	24 h, 30 °C, ≥50% inhibition	–	MIC	< 0.008 µg/mL
CN(C)c1cc(CNC(C)(C)C)c(O)c2c1C[C@H]1C[C@H]3[C@H](N(C)C)C(O)=C(C(N)=O)C(=O)[C@@]3(O)C(O)=C1C2=O	Streptococcus pneumoniae	–	ATCC 700905, Tet M ribosome protection	–	–	MIC	2 µg/mL (≈ 3.69 µM)
CCOC(=O)c1c(C)oc2nc(N3CCOCC3)ccc12	Trypanosoma cruzi	–	3T3 host cells, Tulahuen beta-galactosidase	6 days	–	EC50	17.4 µM
CNCc1ccc2c(c1)N(C(=O)OCc1c(F)c(F)c(F)c(F)c1F)[C@H](CNC(=N)N)[C@H]2NC(=O)C(=O)Nc1ccc(Cl)c(F)c1	amphotropic murine leukemia virus	viral infection	Cf2Th-CD4/CCR5	–	–	IC50	> 300 µM
COc1ccc(Nc2c(C#N)cnc3ccc(Cl)cc23)cc1	Trypanosoma cruzi	–	cardiomyocytes, intracellular amastigotes, Y	at least 15 µM, 72 h	–	reduction of endocytic index	~70%
CN(C)c1cc(CNCCC(C)(C)C)c(O)c2c1C[C@H]1C[C@H]3[C@H](N(C)C)C(O)=C(C(N)=O)C(=O)[C@@]3(O)C(O)=C1C2=O	Streptococcus pneumoniae	microbial growth, broth dilution	–	–	–	MIC	0.125 µg/mL (≈ 0.219 µM)
CCCCCc1ccc2c(c1O)C(c1ccc(OC)c(OC)c1OC)OC2=O (stereo not shown)	Naegleria fowleri	parasite growth, resazurin	ATCC30808	48 h	–	IC90	56.1 µM
CNC1=C([N+](=O)[O-])C2(C(=O)Nc3ccccc32)C2=C(CCCC2=O)O1 (stereo not shown)	Streptococcus pneumoniae	–	MTCC 655	250 µg/mL, 24 h	–	growth inhibition	29.1%
CC1(CCCCCCCCCCOCCCOP(=O)(O)CO[C@H](CO)Cn2ccc(N)nc2=O)COC1	JC polyomavirus	qPCR	COS-7, MAD-4	–	baseline: CC50 over EC50	selectivity index	48
Cc1ccc(-c2nc3ccc(C)cn3c2CN2CCN(c3ccc(F)cc3)CC2)cc1	Trypanosoma cruzi	–	3T3 host cells, Tulahuen beta-galactosidase	6 days	–	EC50	1 µM
C[N+](C)(CC(=O)Nc1cccc(C(F)(F)F)c1)CC(=O)Nc1cccc(C(F)(F)F)c1	Zika virus	–	Huh-7	–	baseline: CC50 over EC50	selectivity index	136
C[C@@H](c1ccn(Cc2c(F)ccc(F)c2F)n1)[C@](O)(Cn1cnnn1)c1ccc(F)cc1F	Candida tropicalis	growth, broth microdilution	2718	24 h, 30 °C, ≥50% inhibition	–	MIC	< 0.008 µg/mL
CN(C)c1cc(CN2CCCC2)c(O)c2c1C[C@H]1C[C@H]3[C@H](N(C)C)C(O)=C(C(N)=O)C(=O)[C@@]3(O)C(O)=C1C2=O	Streptococcus pneumoniae	microbial growth, broth dilution	–	–	–	MIC	0.25 µg/mL (≈ 0.462 µM)
CC[C@H](C)[C@H](NC(=O)[C@H](CCCCN)NC(=O)[C@H](CC(N)=O)NC(=O)[C@H](CC(C)C)NC(=O)[C@H](Cc1ccccc1)NC(=O)[C@H](CCCCN)NC(=O)[C@H](CCCCNC(=N)N)NC(=O)[C@H](CC(C)C)NC(=O)[C@H](CC(C)C)NC(=O)[C@H](CCCCN)NC(=O)[C@H](CCCCNC(=N)N)NC(=O)[C@H](CC(C)C)NC(=O)CNC(C)=O)C(=O)N[C@@H](CCCCN)C(=O)N[C@@H](CCCCNC(=N)N)C(N)=O	all bacteria tested	–	–	–	–	geometric mean MIC	4.42 µM
C=C(C)[C@@H]1CC[C@]2(CO)CC[C@]3(C)[C@H](CC[C@@H]4[C@@]5(C)CCCNC(C)(C)[C@@H]5CC[C@]43C)[C@@H]12	Human cytomegalovirus	cytopathic effect	HFF, AD169	–	–	EC90	> 6 µM

Repeated from above:
SMILES	organism	test	system	conditions	scale	quantity	value
C=C(C)[C@@H]1CC[C@]2(CO)CC[C@]3(C)[C@H](CC[C@@H]4[C@@]5(C)CCCNC(C)(C)[C@@H]5CC[C@]43C)[C@@H]12	Human cytomegalovirus	cytopathic effect	HFF, AD169	–	–	EC90	> 6 µM
CN(C)c1cc(CNC(C)(C)C)c(O)c2c1C[C@H]1C[C@H]3[C@H](N(C)C)C(O)=C(C(N)=O)C(=O)[C@@]3(O)C(O)=C1C2=O	Streptococcus pneumoniae	–	ATCC 700905, Tet M ribosome protection	–	–	MIC	2 µg/mL (≈ 3.69 µM)
